Measured values of several laboratories.
Several values in a cell are separate wells, animals, samples, runs or records. Numbers after ± are the reported error.
HLA class I histocompatibility antigen, A alpha chain allele A*01:01: HLA class I histocompatibility antigen, A alpha chain, allele A*01:01 (Homo sapiens, UniProt P04439)
HLA class I histocompatibility antigen, A alpha chain allele A*02:01: HLA class I histocompatibility antigen, A alpha chain, allele A*02:01 (Homo sapiens, UniProt P04439)
SCRIB PDZ3 domain: Protein scribble homolog, PDZ3 domain (SCRIB, Homo sapiens, UniProt Q14160)

| Substance | target or system | assay | system | conditions | scale | quantity | result |
| --- | --- | --- | --- | --- | --- | --- | --- |
| milbemycin oxime | CDR1 (Candida albicans, UniProt Q5ANA3) | binding, microscale thermophoresis |  | 4.89 nM |  | fraction bound | -5.02% |
| Peginesatide | UT7/EPO | RT-qPCR, refers to: DUSP2 |  | concentration not given, 90 min, normalized to HPRT1 | reference: vehicle | mRNA level | 3.9 fold |
| TSTVQLIM | HLA class I histocompatibility antigen, A alpha chain allele A*01:01 | conformational ELISA | peptide | concentration not given | reference: positive control peptide, direction not given | binding score | 0.8% |
| methyl-β-cyclodextrin | SLC6A9 (Homo sapiens, UniProt P48067) | transport activity, [3H]glycine uptake |  | 3.5 mg/mL, 1 min, with: glycine 37.5 µM | higher = more transport | glycine uptake rate | 12.2 a.u. and 17.5 a.u. and 16.8 a.u. and 15.3 a.u. and 11.7 a.u. |
| LMPFGSLL | HLA class I histocompatibility antigen, A alpha chain, allele A*24:02 (Homo sapiens, UniProt P04439) | conformational ELISA | peptide | concentration not given | reference: positive control peptide, direction not given | binding score | 26.4% |
| LMDLSTTPL | HLA class I histocompatibility antigen, A alpha chain allele A*02:01 | HLA-A2 stabilization, peptide titration | peptide, T2 | 20 h, 37 °C, with: human β2-microglobulin 100 ng/mL | reference: HIVpol reference peptide, lower is stronger | relative affinity | 0.947 |
| 6-carboxyfluorescein | SLCO2A1 (Homo sapiens, UniProt Q92959, C420F) | compound uptake, substrate | HEK293F expressing SLCO2A1 C420F | 50 µM | reference: wild type | uptake | 10.9% and 13.5% and 12.6% |
| LHLHGTGIQV | SCRIB PDZ3 domain | binding, fluorescence polarization | peptide, solution | Scribble PDZ3 domain |  | Kd | 100 µM |
| GSGAGIATEV | human SCRIB PDZ3-4 tandem (MBP fusion) | automated holdup | peptide, crude extract | concentration not given, corrected by standard peak, unit not given | reference: biotin control resin, higher = stronger binding | binding intensity | 0.849 |
| LIMQLMPF | HLA class I histocompatibility antigen, A alpha chain allele A*01:01 | conformational ELISA | peptide | concentration not given | reference: positive control peptide, direction not given | binding score | 0.6% |
| colistin | Klebsiella pneumoniae | broth microdilution | clinical isolate RKI-No_461/16 |  |  | MIC | 32 mg/L |
| 11-deoxycorticosterone | CYP11B2 (human) | substrate binding, stopped-flow global kinetic fitting | purified enzyme | 3-state conformational selection model, with: equimolar adrenodoxin |  | rate constant k-1 | 1.38 ± 0.0822 s⁻¹ |
| VMRLQSETSV | human SCRIB PDZ3-4 tandem (MBP fusion) | automated holdup | peptide, crude extract | concentration not given, uncorrected, unit not given | reference: biotin control resin, higher = stronger binding | binding intensity | 0.811 |
| BzATP | P2X purinoceptor 7 (P2rx7, Rattus norvegicus, UniProt Q64663) | ion current, agonist, two-electrode voltage clamp | Xenopus laevis oocytes | 30 µM | reference: 100 µM ATP current | normalized current | 1.45 and 1.73 and 1.28 |
| SYLSGANLNL | human HLA-A24 (A*2401) | peptide-MHC binding, iTopia initial binding | peptide, plate-bound HLA heavy chain | 11 µM, 18 h, 21 °C | reference: allele-matched positive control peptide | binding | 95 ,2 |
| CTIL | Protein farnesyltransferase (Rattus norvegicus, UniProt Q02293+Q04631) | substrate, dansyl fluorescence kinetics | peptide | with: 4 µM C15-Alk |  | Km | 5.6 ± 1 µM |
| LIMQLMPFGCL | HLA class I histocompatibility antigen, A alpha chain allele A*02:01 | conformational ELISA | peptide | concentration not given | reference: positive control peptide, direction not given | binding score | 90.7% |
| SEKVSATREEL | SCRIB PDZ3 domain | binding, fluorescence polarization | peptide, solution | Scribble PDZ3 domain |  | Kd | 100 µM |
| ITQLMPFGSL | HLA class I histocompatibility antigen, A alpha chain allele A*01:01 | conformational ELISA | peptide | concentration not given | reference: positive control peptide, direction not given | binding score | 0% |
| tannic acid | hyaluronidase (bovine testes) | enzyme activity |  | 500 µg/mL |  | inhibition | 95.28 ± 0.5% |
